Measurements pooled from the literature.
Compare with care: the assays were run in different laboratories. ± marks the error that the study gave.

Compound	test	test system	setting	how to read	measurement	value
Cc1cc(Oc2cncnc2)cc(C(=O)Nc2ccc(F)cn2)n1		CD-1 mouse, male, brain	intraperitoneal, 3.0 mg/kg, 15 min		unbound brain concentration	0.115 µM
CNC(=O)c1ccc(-c2cnc3ncc(Cc4ccc5ncccc5c4)n3n2)cc1F		human, moderate hepatic impairment (Child-Pugh B), plasma	oral, 200 mg single dose		Vz/F (geometric mean)	292 L
C[C@](C#N)(COc1cc(C#N)ccc1C(F)(F)F)NC(=O)c1ccc(SC(F)(F)F)cc1		parasitized calves, plasma	oral, 2.5 mg/kg		absorption half-life	1.74 ± 0.66 h
Cc1nc2cccc(OCC(C)(C)C(=O)NC(C)C)c2c(N)c1C(=O)O		male Sprague-Dawley rat, plasma	dietary, 100 mg/kg/day, day 90		Tmax	3 h
CNCc1ccc(-c2[nH]c3cc(F)cc4c3c2CCNC4=O)cc1		human patients, plasma	oral, 240 mg twice daily, day 15, steady state, arithmetic mean		AUC(0-t)	10.7 µg·h/mL
O=c1[nH]c(=O)c(Cc2cccc(C(F)(F)F)c2)c([C@H]2CC[C@H](c3ccccc3)CC2)[nH]1		human, fasted, plasma	oral, 1500 mg single dose, geometric mean		Cmax	0.645 µg/mL
CCCC[C@H](NC(C)=O)C(=O)N[C@H]1CCC(=O)NC[C@@H](C(=O)N[C@@H](Cc2c[nH]c3ccccc23)C(N)=O)NC(=O)[C@H](CCCNC(=N)N)NC(=O)[C@@H](Cc2ccccc2)NC(=O)[C@H](Cc2c[nH]cn2)NC1=O		beagle dog, male, plasma	subcutaneous, 1.5 mg/kg daily, day 28		Tmax	0.75 h
CCCCC1(CCCC)CN(c2ccccc2)c2cc(SC)c(OCC(=O)N[C@@H](C(=O)NCC(=O)O)c3ccccc3)cc2S(=O)(=O)C1		human, plasma	oral, 2.5 mg once daily, day 14, geometric mean		AUC(0-t)	0.000249 µg·h/mL
COc1cccc2c1C(=O)c1c(O)c3c(c(O)c1C2=O)C[C@@](O)(C(=O)CO)C[C@@H]3O[C@H]1C[C@H](N)[C@H](O)[C@H](C)O1		mouse, E0771 tumour-bearing, heart	intravenous, 92 µmol/kg		Tmax	0.5 h
CC[C@]1(O)C[C@@H]2CN(CCc3c([nH]c4ccccc34)[C@@](C(=O)OC)(c3cc4c(cc3OC)N(C)[C@H]3[C@@](O)(C(=O)OC)[C@H](OC(C)=O)[C@]5(CC)C=CCN6CC[C@]43[C@@H]65)C2)C1	mitochondrial swelling	BALB/cByJ female mouse liver mitochondria	30 min, together with: succinate + rotenone	baseline: CaCl2 maximal swelling	EC20	186 µM
O=C([O-])CN1CCN(CC(=O)[O-])CCN(CC(=O)[O-])CCN(CC(=O)[O-])CC1.[67Ga+3]	RP-TLC	murine plasma	3 h, 37 °C, 5% CO2		intact radiolabelled complex	97.5 ± 0.5%
O=C(/C=C/c1ccc(O)c(O)c1)c1ccc(O)cc1O	cytochrome c release, ELISA	BALB/cByJ female mouse liver mitochondria	30 min	baseline: alamethicin maximal release	EC20	> 200 µM
COc1cccc(-c2ccc(NC(=O)C3=C(C(=O)O)CCC3)c(F)c2)c1		human, male, plasma	oral, 50 mg once daily, day 13, geometric mean, not pre-dosed		AUC(0-24h)	167 µg·h/mL
CNS(=O)(=O)Cc1ccc2[nH]cc(CCN(C)C)c2c1	mitochondrial swelling	BALB/cByJ female mouse liver mitochondria	30 min, together with: succinate + rotenone	baseline: CaCl2 maximal swelling	EC20	> 400 µM
O=C(O)c1cccc(CN2CN(C3CCCCC3)C3(CCN(CCCC(=O)c4ccccc4)CC3)C2=O)c1		rat Sprague Dawley female	1000 mg/kg/day, 4 to 8 min after start, first session		rearing activity	2 counts

Excerpt of the above:
Compound	test	test system	setting	how to read	measurement	value
C[C@](C#N)(COc1cc(C#N)ccc1C(F)(F)F)NC(=O)c1ccc(SC(F)(F)F)cc1		parasitized calves, plasma	oral, 2.5 mg/kg		absorption half-life	1.74 ± 0.66 h
